# Results pooled from the literature.
# Each line is one published result; not all experiments were run side by side.
# USP13 ZnF-UBD domain: Ubiquitin carboxyl-terminal hydrolase 13, ZnF-UBD domain (USP13, Homo sapiens, UniProt Q92995)
# Chain of UniProt Q92995 (whole entry, looked up): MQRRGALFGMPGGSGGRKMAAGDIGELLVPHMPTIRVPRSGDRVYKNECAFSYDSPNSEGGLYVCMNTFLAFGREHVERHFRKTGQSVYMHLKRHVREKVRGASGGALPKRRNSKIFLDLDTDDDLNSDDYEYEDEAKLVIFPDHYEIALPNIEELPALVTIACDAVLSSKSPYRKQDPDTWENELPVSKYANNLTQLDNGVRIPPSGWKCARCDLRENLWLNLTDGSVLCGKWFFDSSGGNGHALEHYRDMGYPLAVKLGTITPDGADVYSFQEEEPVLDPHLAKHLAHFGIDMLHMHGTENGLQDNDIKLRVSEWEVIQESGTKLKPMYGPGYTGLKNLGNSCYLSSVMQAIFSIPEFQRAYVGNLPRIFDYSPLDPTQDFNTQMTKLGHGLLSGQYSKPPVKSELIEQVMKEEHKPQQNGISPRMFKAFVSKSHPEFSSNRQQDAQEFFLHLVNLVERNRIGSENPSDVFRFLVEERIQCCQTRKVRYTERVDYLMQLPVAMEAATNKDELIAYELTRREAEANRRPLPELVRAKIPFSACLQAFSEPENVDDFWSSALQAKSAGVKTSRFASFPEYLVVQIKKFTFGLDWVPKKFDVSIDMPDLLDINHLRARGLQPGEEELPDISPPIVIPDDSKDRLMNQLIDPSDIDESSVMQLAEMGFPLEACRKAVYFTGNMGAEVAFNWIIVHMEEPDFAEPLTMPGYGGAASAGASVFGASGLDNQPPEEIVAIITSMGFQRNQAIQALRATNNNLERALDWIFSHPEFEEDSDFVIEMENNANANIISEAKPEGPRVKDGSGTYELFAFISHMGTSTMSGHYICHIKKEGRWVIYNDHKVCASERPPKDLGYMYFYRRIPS
SMILES,target or system,test,test system,setting,scale,endpoint,result
NC(=O)c1cnc2[nH]ccc2c1N[C@@H]1[C@@H]2CC3C[C@H]1C[C@@](O)(C3)C2,,"flow cytometry, refers to: CD8+ memory T cells","Japanese healthy subjects, peripheral blood","oral, 30 mg twice daily, day 7",,change from baseline,1.37%
C[C@H](Oc1ccc(Br)cc1-c1ccon1)C(=O)O,,first response peak,"human, tibialis anterior muscle","50 mg, 30 Hz, single ascending dose",,difference from placebo,8.41%
CC(C)NCC(O)c1ccc(O)c(O)c1 (centres unmarked),,,"ventricular cardiomyocytes, C57BL/6 mouse","dose not given, 0.668 s",,sarcomere length,1.72 µm
O=C(O)CCc1nc2ccccc2c2nc(Cc3ccccc3)nn12,USP13 ZnF-UBD domain,,,,,Kd,> 1000 µM
OC(CCN1CCCCC1)(c1ccccc1)C1CC2C=CC1C2 (centres unmarked),,resting-state EEG,healthy elderly humans,"oral, 2 mg, eyes open, LS mean",,"power, delta EEG, O2-Pz",7.8 µV²
COc1cc2cc(-c3ccc(CC(=O)Nc4cc(C(C)(C)C(F)(F)F)no4)cn3)cnc2cc1OC,,RECIST v1.1,RET-altered advanced solid tumour patients,"oral, 100 mg once daily, phase I",,partial response as best response,67%
Cc1nn(-c2nc3c(F)cc(F)cc3s2)c(O)c1C(c1ccc(C(F)(F)F)cc1)c1c(C)nn(-c2nc3c(F)cc(F)cc3s2)c1O,,refers to: pancreatic haemorrhage,"mouse, cerulein-induced acute pancreatitis",25 mg/kg,direction not given,histology score,0
c1ccc(-c2n[nH]cc2-c2ccnc3ccccc23)nc1,,"kinase binding, competitor, MIB/MS competition, refers to: HRK1",Candida albicans cell lysate,100 nM,relative to: DMSO,log2 fold change,1.33
O=C(O)Cn1ccc2ccccc2c1=O,USP13 ZnF-UBD domain,,,,,Kd,228 µM
C[C@H]1C[C@H]2CSC(N)=N[C@@]2(c2nc(NC(=O)c3ccc(OC(F)F)cn3)cs2)CO1,,refers to: total Aβ,"healthy adults, plasma","200 mg single dose, 8 h post-dose",relative to: placebo,percent change from baseline,-59.1%
Cn1cc(-c2ccc(-c3cncc(Cl)c3N3CCC4(CCNC4=O)CC3)cc2)cn1,COLO 205,"gene expression, microarray, refers to: RSU1 mRNA",,"concentration not given, 6 h",relative to: untreated cells,log2 fold change,1.23
N#Cc1ccc2c(c1)[C@H]1CCCN(C(=O)c3ccc4[nH]cnc4c3)[C@H]1C2,,refers to: androstenedione,"human male, Phase II trial","oral, 80 mg once daily, HPA axis, mean",,change from baseline,2.76 nmol/L
O=C(O)CNC(=O)Cc1ccccc1,,,"ventricular cardiomyocytes, C57BL/6 mouse","dose not given, 0.228 s",,sarcomere length,1.63 µm
CN[C@@H]1COc2c(S(=O)(=O)NC(=O)Nc3c4c(cc5c3CCC5)CCC4)cnn2C1,,refers to: IL-18,"human participants, whole blood ex vivo","1800 mg single dose, 4 h, IL-18, circulating, adjusted for, added: LPS/ATP",relative to: baseline,inhibition,99.6%

# For quick reference, copied from above:
SMILES,target or system,test,test system,setting,scale,endpoint,result
CC(C)NCC(O)c1ccc(O)c(O)c1 (centres unmarked),,,"ventricular cardiomyocytes, C57BL/6 mouse","dose not given, 0.668 s",,sarcomere length,1.72 µm
